{"data": "Assay results gathered from unrelated publications", "note": "Each numbered part is a random draw from the data of one study; scales do not carry over between parts."}
{"data": "Study 1", "target": "Interferon regulatory factor 5, full length, phosphomimetic (IRF5, Homo sapiens, UniProt Q13568-2, residues 1-514, K96S/S451D/S453D/S456D/S462D)", "method": "protein-binding microarray", "molecule type": "double-stranded DNA, one strand shown", "sample": "in vitro", "concentration": "250 nM", "notes": "60-bp whole probe", "added": "salmon DNA 0.4 mg/ml", "reference": "random background probes", "reading": "higher = stronger binding", "constant ends, left off below": "GCCTAGCAC … GTCTTGATTCGCTTGACGCTGCTG"}
{"Sequence": "TTAGGTTTCGGACTGGCTTAGTGCTAG", "log fluorescence": "5.37 z-score"}
{"Sequence": "TTAGGTATCGACTAGCGGTTAGTGCTA", "log fluorescence": "3.76 z-score"}
{"Sequence": "GACGATTTAGGGACTGGAGACGTGCTA", "log fluorescence": "-0.289 z-score"}
{"Sequence": "AAAATTTTAACCCTTATTCTGTGCTAG", "log fluorescence": "0.677 z-score"}
{"Sequence": "GTGTTTCTCAGTTTATTTATGTGCTAG", "log fluorescence": "1.37 z-score"}
{"data": "Study 2", "target": "Histone acetyltransferase KAT6A, winged helix 2, GST fusion (KAT6A, Homo sapiens, UniProt Q92794, residues 85-181)", "method": "protein binding microarray", "molecule type": "double-stranded DNA, one strand shown", "sample": "in vitro", "concentration": "not given", "notes": "8-mer, flanks averaged, mean of 2 arrays, mostly near background", "reference": "not given", "reading": "higher = stronger binding", "Residues (chain)": "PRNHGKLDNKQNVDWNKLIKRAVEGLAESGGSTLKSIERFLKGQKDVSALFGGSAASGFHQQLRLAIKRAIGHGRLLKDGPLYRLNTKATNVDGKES"}
{"Sequence": "AATTCAGA", "E-score": 0.0828}
{"Sequence": "CAATCTCA", "E-score": -0.127}
{"Sequence": "ATTCAAAA", "E-score": 0.26}
{"Sequence": "CGAGCATC", "E-score": 0.0108}
{"Sequence": "GCGAGACA", "E-score": 0.00228}
{"data": "Study 3", "target": "Sal-like protein 4, full length isoform B (SALL4, Homo sapiens, UniProt Q9UJQ4-2, residues 1-616)", "method": "universal PBM", "molecule type": "double-stranded DNA, one strand shown", "sample": "in vitro", "concentration": "not given", "notes": "8-mer, flanks averaged, mean of replicates", "reading": "higher = stronger binding"}
{"Sequence": "AGGGAGCG", "E-score": -0.232}
{"Sequence": "GCGAAAAC", "E-score": -0.104}
{"Sequence": "GACCGCGC", "E-score": -0.282}
{"Sequence": "AAAGCACT", "E-score": 0.0134}
{"Sequence": "CCCCTGAA", "E-score": -0.0706}
{"Sequence": "ACATACCA", "E-score": 0.0276}
{"Sequence": "GCGCTCCA", "E-score": -0.381}
{"data": "Further values, each from its own experiment"}
{"Molecule": "PhoQ, residues 284 288 289 292 302 303 NLALSC", "target": "PhoP, residues 12 14 15 18 19 NHFRA (Escherichia coli, UniProt P23836)", "assay": "Sort-seq, refers to: YFP reporter", "system": "E. coli", "setting": "PhoQ-PhoP variant library, added: 10 µM Mg2+", "scale": "reference: high Mg2+ state, higher = stronger signaling", "measurement": "fold induction", "result": 6.08}
{"note": "Excerpt of the above (study 2):"}
{"Sequence": "AATTCAGA", "E-score": 0.0828}
{"Sequence": "CGAGCATC", "E-score": 0.0108}
